Experimental data of several laboratories.
Parts stem from different laboratories: compare values within a part only.

Set 1
Target: Sal-like protein 4, full length isoform B (SALL4, Homo sapiens, UniProt Q9UJQ4-2, residues 1-616)
Method: universal PBM
Form: double-stranded DNA, one strand shown
Medium: in vitro
Tested at: not given
Setting: 8-mer, flanks averaged, mean of replicates
Direction: higher = stronger binding
Residues (chain): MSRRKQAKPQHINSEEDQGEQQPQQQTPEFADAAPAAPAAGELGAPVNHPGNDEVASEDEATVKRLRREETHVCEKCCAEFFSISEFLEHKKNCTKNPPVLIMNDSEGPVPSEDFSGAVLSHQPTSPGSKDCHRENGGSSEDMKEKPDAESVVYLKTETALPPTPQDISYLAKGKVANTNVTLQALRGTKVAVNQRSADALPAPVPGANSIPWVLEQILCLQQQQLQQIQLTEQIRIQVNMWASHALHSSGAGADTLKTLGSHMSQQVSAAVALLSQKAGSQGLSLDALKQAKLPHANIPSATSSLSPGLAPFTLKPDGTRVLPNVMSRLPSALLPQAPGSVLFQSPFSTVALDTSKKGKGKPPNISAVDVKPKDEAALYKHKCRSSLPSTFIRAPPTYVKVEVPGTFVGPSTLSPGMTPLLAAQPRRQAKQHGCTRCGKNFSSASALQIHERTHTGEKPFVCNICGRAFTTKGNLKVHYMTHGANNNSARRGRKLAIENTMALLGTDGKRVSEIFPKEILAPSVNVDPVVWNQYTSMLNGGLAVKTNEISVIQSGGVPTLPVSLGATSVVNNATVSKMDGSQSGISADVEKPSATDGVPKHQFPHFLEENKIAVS
`GCTCCACC` has an E-score of -0.304.
With `ACTCGCCG` the E-score was -0.154.
For `ATATCCCA`, the E-score was 0.234.

Set 2
Target: Histone acetyltransferase KAT6A, winged helix 1, GST fusion (KAT6A, Homo sapiens, UniProt Q92794, residues 1-85)
Method: protein binding microarray
Form: double-stranded DNA, one strand shown
Medium: in vitro
Tested at: not given
Setting: 8-mer, flanks averaged, mean of 2 arrays, mostly near background
Relative to: not given
Direction: higher = stronger binding
Target sequence (chain): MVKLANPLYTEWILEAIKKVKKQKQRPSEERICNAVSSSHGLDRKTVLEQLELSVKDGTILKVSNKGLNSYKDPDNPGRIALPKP
`CGGATAGA` gave an E-score of 0.169.
`GAAAGGTA` has an E-score of -0.0841.
For `AGGTCAAA`, the E-score was -0.137.

Set 3
Target: RNA binding protein fox-1 homolog 2, RRM domain, GST-SBP tag (RBFOX2, Homo sapiens, UniProt O43251-10, residues 100-194)
Method: RNA Bind-n-Seq
Form: RNA
Medium: in vitro
Tested at: 365 nM
Setting: natural RNA segment, single round, ends assumed
Relative to: no-protein control
Direction: higher = stronger binding
Under “RBNS enrichment (R)”, `GGGAGUUCUACAGUCCGACGAUCCUUAAAAUAUGUGAAGUUUUCCUUGCUAUUUCAAUAACAGAUGGUGCUGCUAAUUCCCAACAUUUCUUAAAUUAUUUUAUAUCAUACAGUUUUCAUUGAUUAUAUGGGUAUGGAAUUCUCGGGUGCCAA` is recorded as 0.711.
For `GGGAGUUCUACAGUCCGACGAUCGCUGGGGCCCCGCCUCCUUUCUGUUUUAUUUUUGAGGAAAUAAAAUAACCAAGUGCUAAAUCUUGUAGCUCUGGGGCUGCCUCGGUUUUCCUAAGGAGCCAGGGGUUCUGUGGAAUUCUCGGGUGCCAA`, “RBNS enrichment (R)” read 0.48.
`GGGAGUUCUACAGUCCGACGAUCGCUCACGCUGCAGAGUCUCUGUGGCGUACCUGGGGGCAUUCUAAGUCCAGUGACUUUUGAAAUUCAACCUUUUUUUAAAAAAAAAAAAUCUAGGGAGGGCGGGGUGAAGUUGGAAUUCUCGGGUGCCAA` — result for “RBNS enrichment (R)”: 0.471.
`GGGAGUUCUACAGUCCGACGAUCAGCUGGGAUUACAGGCACCCACCACCAUGCCUGGCUAAUUUUUGUAUUUUUGGUAGAGACAGGGUUUCACCAUGUUGGUCAGGCUAGUCUUGAACUCCCAACCUCAAGUGUGGAAUUCUCGGGUGCCAA`: “RBNS enrichment (R)” 0.63.

Mixed results
The fold induction of `PhoQ, residues 284 288 289 292 302 303 SQSLSM` is reported as 10.5 (PhoP, residues 12 14 15 18 19 IQSYL (Escherichia coli, UniProt P23836); Sort-seq, measured: YFP reporter; E. coli; PhoQ-PhoP variant library, added: 10 µM Mg2+; relative to: high Mg2+ state, higher = stronger signaling).

For quick reference, copied from above (set 2):
`GAAAGGTA` has an E-score of -0.0841.
